Experimental data collected from several papers.
A part holds a random share of what one study measured.
Chain of UniProt O76039 (whole entry, looked up): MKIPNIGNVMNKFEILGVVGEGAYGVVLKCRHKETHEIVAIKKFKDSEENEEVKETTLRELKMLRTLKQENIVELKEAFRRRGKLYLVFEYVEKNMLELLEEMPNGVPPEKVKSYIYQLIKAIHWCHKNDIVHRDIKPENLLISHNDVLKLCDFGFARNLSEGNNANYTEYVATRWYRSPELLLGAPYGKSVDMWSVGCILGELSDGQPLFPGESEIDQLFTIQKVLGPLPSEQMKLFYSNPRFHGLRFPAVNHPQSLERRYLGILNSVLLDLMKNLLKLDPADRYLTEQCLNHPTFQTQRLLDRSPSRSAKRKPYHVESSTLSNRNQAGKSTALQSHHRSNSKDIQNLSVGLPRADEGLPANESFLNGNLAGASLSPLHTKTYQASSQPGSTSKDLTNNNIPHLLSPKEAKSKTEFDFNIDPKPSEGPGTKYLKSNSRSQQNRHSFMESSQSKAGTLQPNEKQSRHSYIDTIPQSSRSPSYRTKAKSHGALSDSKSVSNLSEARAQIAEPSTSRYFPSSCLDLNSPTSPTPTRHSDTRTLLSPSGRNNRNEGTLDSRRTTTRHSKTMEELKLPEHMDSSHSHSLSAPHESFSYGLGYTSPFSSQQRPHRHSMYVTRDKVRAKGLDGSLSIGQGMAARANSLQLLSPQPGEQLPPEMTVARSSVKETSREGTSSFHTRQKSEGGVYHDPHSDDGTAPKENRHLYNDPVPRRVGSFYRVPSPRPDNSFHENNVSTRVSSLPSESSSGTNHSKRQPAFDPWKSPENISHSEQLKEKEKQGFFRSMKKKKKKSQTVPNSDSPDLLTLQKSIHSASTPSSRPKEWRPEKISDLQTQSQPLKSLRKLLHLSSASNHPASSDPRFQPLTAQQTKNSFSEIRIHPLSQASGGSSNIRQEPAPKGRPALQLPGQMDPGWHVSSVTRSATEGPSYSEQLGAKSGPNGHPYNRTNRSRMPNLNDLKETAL
Chain of UniProt Q13546 (whole entry, looked up): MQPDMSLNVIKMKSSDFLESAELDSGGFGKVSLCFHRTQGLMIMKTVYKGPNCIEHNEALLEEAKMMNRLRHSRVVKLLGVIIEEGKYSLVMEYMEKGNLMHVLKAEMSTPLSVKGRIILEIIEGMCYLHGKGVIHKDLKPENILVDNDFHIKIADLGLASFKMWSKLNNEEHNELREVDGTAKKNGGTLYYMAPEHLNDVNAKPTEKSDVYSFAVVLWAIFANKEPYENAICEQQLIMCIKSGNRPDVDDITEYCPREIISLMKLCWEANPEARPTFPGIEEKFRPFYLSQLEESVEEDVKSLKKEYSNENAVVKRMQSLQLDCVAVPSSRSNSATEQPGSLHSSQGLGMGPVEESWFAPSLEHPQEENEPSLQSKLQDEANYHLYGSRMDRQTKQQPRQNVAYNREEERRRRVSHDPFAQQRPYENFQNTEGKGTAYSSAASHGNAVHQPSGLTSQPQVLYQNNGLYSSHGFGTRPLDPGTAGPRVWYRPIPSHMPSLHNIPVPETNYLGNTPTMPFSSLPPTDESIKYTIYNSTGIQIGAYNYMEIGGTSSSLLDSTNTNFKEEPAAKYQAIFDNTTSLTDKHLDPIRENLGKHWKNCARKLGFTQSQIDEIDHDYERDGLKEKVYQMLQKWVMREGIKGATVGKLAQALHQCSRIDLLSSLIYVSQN
Chain of UniProt Q6ZWH5 (whole entry, looked up): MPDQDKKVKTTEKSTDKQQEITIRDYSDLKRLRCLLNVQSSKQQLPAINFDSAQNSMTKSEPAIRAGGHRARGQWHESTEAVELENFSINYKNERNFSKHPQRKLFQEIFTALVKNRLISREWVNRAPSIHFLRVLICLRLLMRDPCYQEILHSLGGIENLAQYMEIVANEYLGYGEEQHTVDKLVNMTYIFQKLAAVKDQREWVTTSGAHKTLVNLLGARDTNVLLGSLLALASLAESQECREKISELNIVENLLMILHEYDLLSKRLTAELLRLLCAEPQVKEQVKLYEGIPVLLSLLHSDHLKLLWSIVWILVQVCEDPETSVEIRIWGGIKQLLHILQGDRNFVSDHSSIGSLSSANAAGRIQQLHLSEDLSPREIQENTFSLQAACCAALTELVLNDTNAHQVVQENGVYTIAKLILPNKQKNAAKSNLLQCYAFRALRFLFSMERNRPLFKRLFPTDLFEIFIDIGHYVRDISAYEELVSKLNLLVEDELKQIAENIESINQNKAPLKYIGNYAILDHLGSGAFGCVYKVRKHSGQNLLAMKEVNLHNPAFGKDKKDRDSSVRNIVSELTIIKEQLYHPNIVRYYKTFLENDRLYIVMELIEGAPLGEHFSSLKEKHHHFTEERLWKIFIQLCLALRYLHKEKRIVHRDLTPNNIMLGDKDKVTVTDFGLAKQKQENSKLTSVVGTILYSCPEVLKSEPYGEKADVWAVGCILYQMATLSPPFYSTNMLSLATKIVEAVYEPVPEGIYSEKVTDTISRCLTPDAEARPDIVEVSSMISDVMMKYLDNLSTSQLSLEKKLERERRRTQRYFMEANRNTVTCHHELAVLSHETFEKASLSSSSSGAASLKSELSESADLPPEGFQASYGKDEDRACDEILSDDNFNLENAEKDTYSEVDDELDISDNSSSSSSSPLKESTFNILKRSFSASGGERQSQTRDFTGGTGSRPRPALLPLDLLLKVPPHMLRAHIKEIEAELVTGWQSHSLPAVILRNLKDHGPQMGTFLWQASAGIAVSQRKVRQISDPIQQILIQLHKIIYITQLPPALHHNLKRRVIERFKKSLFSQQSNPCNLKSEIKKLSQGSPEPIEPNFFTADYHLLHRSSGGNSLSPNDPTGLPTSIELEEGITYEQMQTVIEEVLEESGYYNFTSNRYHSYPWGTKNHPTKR

Block 1 — method: universal PBM; molecule type: double-stranded DNA, one strand shown; sample: in vitro; tested at: 600 nM; reading: higher = stronger binding
Target: Sal-like protein 4, full length isoform A (SALL4, Homo sapiens, UniProt Q9UJQ4, residues 1-1053)
Chain of UniProt Q9UJQ4 (whole entry, looked up): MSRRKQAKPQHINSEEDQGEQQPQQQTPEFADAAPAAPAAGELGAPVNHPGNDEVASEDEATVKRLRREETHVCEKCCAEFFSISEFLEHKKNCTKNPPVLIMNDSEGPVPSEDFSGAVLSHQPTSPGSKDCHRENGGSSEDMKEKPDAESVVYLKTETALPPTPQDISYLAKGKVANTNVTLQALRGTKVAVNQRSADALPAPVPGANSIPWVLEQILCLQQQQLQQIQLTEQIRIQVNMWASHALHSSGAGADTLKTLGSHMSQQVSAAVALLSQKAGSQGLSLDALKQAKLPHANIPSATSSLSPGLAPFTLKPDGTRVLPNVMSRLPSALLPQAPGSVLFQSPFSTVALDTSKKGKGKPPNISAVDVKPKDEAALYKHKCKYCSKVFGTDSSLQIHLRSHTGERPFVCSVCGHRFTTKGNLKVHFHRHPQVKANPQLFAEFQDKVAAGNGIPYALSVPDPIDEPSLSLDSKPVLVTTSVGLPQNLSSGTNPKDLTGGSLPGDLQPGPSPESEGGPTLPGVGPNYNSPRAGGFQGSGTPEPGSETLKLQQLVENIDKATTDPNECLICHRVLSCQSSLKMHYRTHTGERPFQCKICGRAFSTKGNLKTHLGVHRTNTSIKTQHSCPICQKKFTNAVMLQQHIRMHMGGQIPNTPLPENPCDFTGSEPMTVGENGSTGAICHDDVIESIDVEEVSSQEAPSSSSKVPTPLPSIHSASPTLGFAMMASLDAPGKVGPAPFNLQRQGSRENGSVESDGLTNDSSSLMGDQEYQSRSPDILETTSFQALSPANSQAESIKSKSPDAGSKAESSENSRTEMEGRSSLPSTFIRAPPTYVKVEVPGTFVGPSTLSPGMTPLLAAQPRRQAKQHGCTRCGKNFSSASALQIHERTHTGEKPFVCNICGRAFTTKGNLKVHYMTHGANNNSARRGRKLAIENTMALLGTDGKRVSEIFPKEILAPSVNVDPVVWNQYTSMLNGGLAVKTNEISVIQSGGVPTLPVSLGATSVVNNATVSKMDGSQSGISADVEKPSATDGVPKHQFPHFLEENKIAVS
Notes: 8-mer, flanks averaged, mean of replicates
Strand | E-score
AGAGGTGA | 0.0127
GAATGTCA | -0.0265
CTATTGTA | 0.34
ACAGATGA | 0.0722
CATGCTCC | -0.218
TATTCGGA | 0.106
CGGATCGC | -0.193
CCCAACAC | -0.195

Block 2 — method: protein-binding microarray; molecule type: double-stranded DNA, one strand shown; sample: in vitro; tested at: not given; reading: higher = stronger binding
Target: Protein C-ets-1 (ETS1, Homo sapiens, UniProt P14921, residues 1-441, full length assumed)
Notes: k-mer, scored over probes, only values ≥0.25
Residues (chain): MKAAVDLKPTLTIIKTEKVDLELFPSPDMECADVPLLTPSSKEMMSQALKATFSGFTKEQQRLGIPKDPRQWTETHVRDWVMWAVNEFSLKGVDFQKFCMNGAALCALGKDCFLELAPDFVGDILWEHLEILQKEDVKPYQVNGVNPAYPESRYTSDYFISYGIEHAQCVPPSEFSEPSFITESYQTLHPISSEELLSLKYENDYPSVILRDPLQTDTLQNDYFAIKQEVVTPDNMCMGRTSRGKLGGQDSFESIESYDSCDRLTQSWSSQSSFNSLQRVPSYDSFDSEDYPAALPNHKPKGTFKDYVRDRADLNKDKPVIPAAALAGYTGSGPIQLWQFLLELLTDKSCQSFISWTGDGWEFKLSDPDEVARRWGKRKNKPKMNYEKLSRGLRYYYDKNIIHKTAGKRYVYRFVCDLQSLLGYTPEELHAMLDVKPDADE
Strand | E-score
CCGGGAAG | 0.415
GAACCGGA | 0.468
CAGCGGAA | 0.451
ATCCCCGC | 0.282
AGCGGGGA | 0.287
CGCCCGGA | 0.381
GACCGGAC | 0.452
CCCACCCC | 0.312

Block 3 — observed: enzyme activity; mode: inhibitor; tested at: 0.5 µM; relative to: control
Target: NT-3 growth factor receptor (NTRK3, Homo sapiens, UniProt Q16288)
Chain of UniProt Q16288 (whole entry, looked up): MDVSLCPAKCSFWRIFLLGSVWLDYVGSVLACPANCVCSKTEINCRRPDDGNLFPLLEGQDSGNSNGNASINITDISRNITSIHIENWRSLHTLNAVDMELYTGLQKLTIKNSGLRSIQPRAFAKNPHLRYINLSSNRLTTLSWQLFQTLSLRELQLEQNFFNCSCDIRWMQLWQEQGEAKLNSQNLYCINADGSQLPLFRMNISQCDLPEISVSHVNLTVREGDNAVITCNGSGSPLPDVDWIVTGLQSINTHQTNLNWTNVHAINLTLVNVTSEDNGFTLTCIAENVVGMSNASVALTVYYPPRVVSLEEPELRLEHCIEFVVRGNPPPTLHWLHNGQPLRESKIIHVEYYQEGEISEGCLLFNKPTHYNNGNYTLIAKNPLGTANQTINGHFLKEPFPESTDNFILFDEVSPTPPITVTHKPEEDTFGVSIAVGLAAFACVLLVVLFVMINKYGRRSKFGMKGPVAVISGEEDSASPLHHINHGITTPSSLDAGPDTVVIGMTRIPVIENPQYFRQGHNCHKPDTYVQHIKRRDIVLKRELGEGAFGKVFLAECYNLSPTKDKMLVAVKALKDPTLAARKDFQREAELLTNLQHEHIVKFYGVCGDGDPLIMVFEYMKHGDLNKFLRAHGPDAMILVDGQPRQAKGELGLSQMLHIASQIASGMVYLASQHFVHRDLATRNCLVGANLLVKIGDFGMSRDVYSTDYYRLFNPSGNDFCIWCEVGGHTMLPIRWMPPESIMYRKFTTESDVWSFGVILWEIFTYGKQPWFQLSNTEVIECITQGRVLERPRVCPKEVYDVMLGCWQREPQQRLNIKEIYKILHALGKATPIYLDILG
SMILES | remaining activity [%]
CCCNC(=O)Nc1ccc(Oc2ncnc3cc(OC)c(OC)cc23)cc1Cl | 89
Cc1ccc(S(=O)(=O)/C=C/C#N)cc1 | 95.5
COc1ccc2c(c1)c(C1=C(c3c[nH]c4ccccc34)C(=O)NC1=O)cn2CCCN(C)C | 54.9
CN(C)S(=O)(=O)c1ccc2c(c1)/C(=C/c1cc3c([nH]1)CCCC3)C(=O)N2 | 2.88
O=C(O)/C=C/c1cc(Br)c(Br)c(Br)c1Br | 90.6
O=C1Nc2ccc(Br)cc2/C1=C/c1cc2c([nH]1)CCCC2 | 11.9
c1ccc2c(-c3ccncc3)c[nH]c2c1 | 100
CC(C)(C)c1nc2c3cc[nH]c(=O)c3c3cc(F)ccc3c2[nH]1 | 6.81
O=C1NC(=O)c2c1c1c3ccccc3[nH]c1n1cncc21 | 26.1
O=C(c1ccccc1)c1ccc(N2CCOCC2)cc1O | 93.7
O=C1NC(=O)/C(=C/c2ccc3c(c2)OC(F)(F)O3)S1 | 98
CCCCc1c(-c2ccc(OC)cc2)[nH]c2nccnc12 | 84.4
CCCCc1c(-c2ccc(O)cc2)[nH]c2nccnc12 | 76.1

Block 4 — observed: cell-free assay; method: competition with immobilised ligand; tested at: 1 µM
Compound: Cc1cc(NC(=O)c2cccc(S(F)(F)(F)(F)F)c2)cc(-n2ccn3nc(-c4cccnc4)cc23)c1
target | remaining binding [%]
FGFR4 (Homo sapiens, UniProt P22455) | 100
CDKL5 (Homo sapiens, UniProt O76039) | 100
NEK10 (Homo sapiens, UniProt Q6ZWH5) | 37.6
RIPK1 (Homo sapiens, UniProt Q13546) | 80.7
CLK4 (Homo sapiens, UniProt Q9HAZ1) | 100
NEK11 (Homo sapiens, UniProt Q8NG66) | 57.5
Tyrosine-protein kinase ABL1, phosphorylated (ABL1, Homo sapiens, UniProt P00519, M351T) | 70.3
Tyrosine-protein kinase ABL1, phosphorylated (ABL1, Homo sapiens, UniProt P00519, Q252H) | 100

A few entries again (block 3):
SMILES | remaining activity [%]
c1ccc2c(-c3ccncc3)c[nH]c2c1 | 100
Cc1ccc(S(=O)(=O)/C=C/C#N)cc1 | 95.5
CC(C)(C)c1nc2c3cc[nH]c(=O)c3c3cc(F)ccc3c2[nH]1 | 6.81
CCCCc1c(-c2ccc(O)cc2)[nH]c2nccnc12 | 76.1
O=C1NC(=O)c2c1c1c3ccccc3[nH]c1n1cncc21 | 26.1
O=C1NC(=O)/C(=C/c2ccc3c(c2)OC(F)(F)O3)S1 | 98
